Measurements pooled from the literature.
Numbered parts are unrelated; each lists some results of a single study. Changes are numbered by the printed parent chain.

Sample 1
Target: CCNE1, cyclin fold, Cln2 fusion (human)
Method: yeast growth competition, sequencing
Matrix: yeast
Notes: weak parent motif
Reference: not given
Direction: higher = stronger binding
Measurement: normalised enrichment score
Parent: MASTL docking peptide (human); PMIAKNLMCELDE
PMIAKNLMCELLE [D12L]: -0.00969
PMIMKNLMCELDE [A4M]: -0.0279
PMIAKNLMCEKDE [L11K]: -0.0707
PMIAKNLMCPLDE [E10P]: -0.00272
PMIAKMLMCELDE [N6M]: 0.499
PMIAKNLMCELPE [D12P]: -0.112
PMLAKNLMCELDE [I3L]: 0.126
PMIAKNLMCECDE [L11C]: -0.0435
PMIACNLMCELDE [K5C]: 0.249
PMSAKNLMCELDE [I3S]: -0.306
PPIAKNLMCELDE [M2P]: 0.0837
PMIATNLMCELDE [K5T]: 0.0863
PDIAKNLMCELDE [M2D]: 0.188
PMIAKNLGCELDE [M8G]: 0.00127
PMIHKNLMCELDE [A4H]: 0.101
PNIAKNLMCELDE [M2N]: -0.239
PMEAKNLMCELDE [I3E]: 0.101
PMIAKNLMCEDDE [L11D]: -0.456
PMIARNLMCELDE [K5R]: 0.316
PMIAKNLMCEGDE [L11G]: 0.19
PMIAKRLMCELDE [N6R]: 0.12
PMIAQNLMCELDE [K5Q]: -0.176
PMIANNLMCELDE [K5N]: 0.488
PMTAKNLMCELDE [I3T]: 0.0797

Sample 2
Target: CEBPB, bZIP domain (human)
Method: DHFR protein complementation
Matrix: yeast
Notes: single substitutions, most at no-binding floor
Reference: wild-type JUN-FOS pair
Direction: higher = stronger binding
Measurement: binding fitness
Parent: JUN, bZIP domain (human); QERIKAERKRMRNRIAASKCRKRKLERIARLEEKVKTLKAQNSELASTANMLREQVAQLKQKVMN; partner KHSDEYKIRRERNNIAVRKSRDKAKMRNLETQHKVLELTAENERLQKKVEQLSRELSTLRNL
A57V: -1.38 natural log
Q55G: -1.46 natural log
K36L: -1.32 natural log
T37A: -1.27 natural log
R30H: -1.36 natural log
V56W: -1.45 natural log
S47A: -1.14 natural log
M51S: -1.28 natural log
E32C: -1.52 natural log
A46N: -1.25 natural log
R30P: -1.36 natural log
S47L: -1.29 natural log
S43T: -1.2 natural log
L31M: -1.15 natural log
R53P: -1.44 natural log
S47D: -1.23 natural log
M51K: -1.17 natural log
A49W: -1.53 natural log
V35W: -1.33 natural log
E32Q: -1.37 natural log
A46V: -1.2 natural log

Sample 3
Target: Histone acetyltransferase KAT6A, winged helix 2, GST fusion (KAT6A, Homo sapiens, UniProt Q92794, residues 85-181)
Method: protein binding microarray
Molecule type: double-stranded DNA, one strand shown
Matrix: in vitro
Tested at: not given
Notes: 8-mer, flanks averaged, mean of 2 arrays, mostly near background
Reference: not given
Direction: higher = stronger binding
Measurement: E-score
Target sequence (chain): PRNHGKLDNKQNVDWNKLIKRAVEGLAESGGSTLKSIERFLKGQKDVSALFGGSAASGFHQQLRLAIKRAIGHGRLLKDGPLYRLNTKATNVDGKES
ATCCCGCG: 0.14
AGGCGTAT: 0.124
CTGCAGGA: 0.146
ACACTGGC: 0.00521
CTCTAACA: -0.094
GTATACTA: -0.149
GCGTGAAC: 0.12
CCATGACG: 0.121
CTCCAATA: 0.0551
ATATTCAG: -0.0511
ACGTAACC: -0.179
ATATAGCC: 0.0271
AAGCAAGA: 0.0292
CACCGGTA: -0.0302
TGTATTAA: -0.0127
CAACCTTC: 0.0201
GGAGTGCA: 0.107
AATTGACA: 0.217
ATGAGTGA: -0.1
CACCTTAG: -0.0307
AATCTGAT: 0.103
ATAGCTGC: -0.0138
GAACGGTC: -0.109
CTGCGTCC: 0.182
AATAAGCG: -0.133

Sample 4
Target: CDC34 UBC core domain (UniProt P49427)
Chain of UniProt P49427 (whole entry, looked up): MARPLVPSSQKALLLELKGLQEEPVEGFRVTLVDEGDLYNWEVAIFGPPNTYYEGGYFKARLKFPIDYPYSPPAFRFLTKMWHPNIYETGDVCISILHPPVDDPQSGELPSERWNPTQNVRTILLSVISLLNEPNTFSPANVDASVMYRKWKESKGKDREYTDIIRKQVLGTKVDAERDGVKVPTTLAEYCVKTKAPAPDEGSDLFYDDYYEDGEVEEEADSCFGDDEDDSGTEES
Method: yeast two-hybrid
Matrix: yeast
Notes: mostly zero background
Reference: not given
Direction: higher = stronger interaction
Measurement: lacZ reporter activity
B1: RNF17 RING domain (UniProt Q9BXT8); chain SQPWGAAEIQCTRCGRRVSRSSGHHCELQCGHAFCELCLLMTEECTTIICPDCEVATAVNTRQR
B2: RNF11 RING domain (UniProt Q9Y3C5); chain RDGSEKKIRECVICMMDFVYGDPIRFLPCMHIYHLDCIDDWLMRSFTCPSCMEPVDAALLSS
B3: RMND5B RING domain (UniProt Q96G75); chain MKCWYHSVFACPILRQQTSDSNPPIKLICGHVISRDALNKLINGGKLKCPYCPMEQNPADGK
B4: SHPRH RING domain (UniProt Q149N8); chain KTSGGVNPEPCPICARQLGKQWAVLTCGHCFCNECISIIIEQYSVGSHRSSIKCAICRQTTSHKEISY
B5: TRIM32 RING domain (UniProt Q13049); chain NLDALREVLECPICMESFTEEQLRPKLLHCGHTICRQCLEKLLASSINGVRCPFCSKITRITSLTQ
B6: RFPL3 RING domain (UniProt O75679); chain MAALFQEASSCPVCSDYLEKPMSLECGCTVCLKCINSLQKEPHGEDLLCCCCSMVSQRNKIRP
B7: PJA2 RING domain (UniProt O43164); chain DHTAIGQEQCCPICCSEYIKDDIATELPCHHFFHKPCVSIWLQKSGTCPVCRRHFPPAVIEA
B8: TRIM74 RING domain (UniProt Q86UV6); chain SLLELEDWLQCPICLEVFKESLMLQCGHSYCKGCLVSLSYHLDTKVRCPMCWQVVDGSSSLP
B9: TRIM34 RING domain (UniProt Q9BYJ4); chain ILLNVQEEVTCPICLELLTEPLSLDCGHSLCRACITVSNKEAVTSMGGKSSCPVCGISYSFEHLQA
B10: CBLL1 RING domain (UniProt Q75N03); chain GEKDDTPVHFCDKCGLPIKIYGRMIPCKHVFCYDCAILHEKKGDKMCPGCSDPVQRIEQCT
B11: ARIH1 RING domain (UniProt Q9Y4X5); chain NTRSSAQDMPCQICYLNYPNSYFTGLECGHKFCMQCWSEYLTTKIMEEGMGQTISCPAHGCDILVDDNTVM
B1 (RNF17 RING domain): 0
B2 (RNF11 RING domain): 0
B3 (RMND5B RING domain): 0
SNNDLASLFECPVCFDYVLPPILQCQSGHLVCSNCRPKLTCCPTCRGPLGSIRNLA (SIAH1 RING domain (UniProt Q8IUQ4)): 0
B4 (SHPRH RING domain): 0
B5 (TRIM32 RING domain): 0
KITELNPHLMCALCGGYFIDATTIVECLHSFCKTCIVRYLETNKYCPMCDVQVHKTRPLL (PCGF2 RING domain (UniProt P35227)): 0
GSEEEEIPFRCFICRQAFQNPVVTKCRHYFCESCALEHFRATPRCYICDQPTGGIFNPA (RNF113B RING domain (UniProt Q8IZP6)): 0
B6 (RFPL3 RING domain): 0
B7 (PJA2 RING domain): 0
EDVLSKDAGECAICLEELQQGDTIARLPCLCIYHKGCIDEWFEVNRSCPEHPSD (ZNRF2 RING domain (UniProt Q8NHG8)): 0
B8 (TRIM74 RING domain): 0
B9 (TRIM34 RING domain): 0
B10 (CBLL1 RING domain): 0
MEEMEEELKCPVCGSFYREPIILPCSHNLCQACARNILVQTPESESPQSHRAAGSGVSDY (TRIM9 RING domain (UniProt Q9C026)): 0
B11 (ARIH1 RING domain): 0

Sample 5
Target: ATP-dependent RNA helicase DDX3X, helicase core (DDX3X, Homo sapiens, UniProt O00571, residues 132-607)
Chain of UniProt O00571 (132-607, looked up): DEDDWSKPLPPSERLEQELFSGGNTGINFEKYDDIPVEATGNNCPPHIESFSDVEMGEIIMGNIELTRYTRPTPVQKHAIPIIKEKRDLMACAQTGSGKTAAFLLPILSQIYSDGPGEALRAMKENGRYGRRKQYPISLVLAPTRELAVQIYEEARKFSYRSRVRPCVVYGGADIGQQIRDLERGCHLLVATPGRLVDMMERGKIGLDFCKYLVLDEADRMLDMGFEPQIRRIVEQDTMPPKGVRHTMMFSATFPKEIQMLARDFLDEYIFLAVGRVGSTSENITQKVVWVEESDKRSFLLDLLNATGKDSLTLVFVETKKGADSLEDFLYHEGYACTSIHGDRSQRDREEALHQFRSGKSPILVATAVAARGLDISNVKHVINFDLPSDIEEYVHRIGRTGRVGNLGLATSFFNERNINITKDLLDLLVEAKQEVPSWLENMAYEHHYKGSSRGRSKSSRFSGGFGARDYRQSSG
Method: RNA Bind-n-Seq
Molecule type: RNA
Matrix: in vitro
Tested at: not given
Notes: 4-mer, random 30-nt RNA, single round
With: RocA, ADP, phosphate
Reference: input library
Direction: higher = stronger binding
Measurement: 4-mer enrichment
AAAU: 1.04 fold
GUUG: 1.19 fold
UCGU: 1.01 fold
GGCU: 0.797 fold
AGUC: 1.09 fold
AUUA: 0.92 fold
CUAC: 0.654 fold
CCUC: 0.708 fold
GCCC: 0.795 fold
UCUU: 0.778 fold
UAUG: 1.02 fold
CGAG: 1.83 fold
GCCU: 0.659 fold
CUCG: 0.681 fold
CCUU: 0.72 fold
GCAA: 0.848 fold
ACGC: 0.648 fold
AUCA: 0.723 fold

Sample 6
Target: Interferon regulatory factor 7, full length, phosphomimetic (IRF7, Homo sapiens, UniProt Q92985, residues 1-503, S471D/S472D/S475D/S476D/S477D/S483D/S484D/S487D)
Method: protein-binding microarray
Molecule type: double-stranded DNA, one strand shown
Matrix: in vitro
Tested at: 2200 nM top
Notes: 60-bp whole probe
With: salmon DNA 0.4 mg/ml
Reference: random background probes
Direction: higher = stronger binding
Measurement: fitted relative affinity
All sequences stand within: GCCTAGCAC … GTCTTGATTCGCTTGACGCTGCTG
Target sequence (chain): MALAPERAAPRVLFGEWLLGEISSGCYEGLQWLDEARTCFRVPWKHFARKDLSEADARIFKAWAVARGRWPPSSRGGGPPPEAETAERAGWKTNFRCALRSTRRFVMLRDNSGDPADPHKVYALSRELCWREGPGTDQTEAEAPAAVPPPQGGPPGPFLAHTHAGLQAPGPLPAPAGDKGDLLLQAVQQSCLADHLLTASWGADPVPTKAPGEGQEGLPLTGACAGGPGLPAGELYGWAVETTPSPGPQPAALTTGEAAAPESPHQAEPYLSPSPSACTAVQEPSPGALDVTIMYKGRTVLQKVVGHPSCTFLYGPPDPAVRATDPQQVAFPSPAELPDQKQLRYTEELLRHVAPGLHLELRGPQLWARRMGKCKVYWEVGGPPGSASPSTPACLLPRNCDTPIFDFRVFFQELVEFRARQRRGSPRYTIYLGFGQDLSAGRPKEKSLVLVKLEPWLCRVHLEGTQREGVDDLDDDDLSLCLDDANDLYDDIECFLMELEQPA
CCCTTTCTCTCTGTGACACAGTGCTAG: 3.25 z-score
TTCGATTTCAGTATCGATTAGTGCTAG: 2.05 z-score
GACGGACTGGGACTGTGGACGTGCTAG: -1.2 z-score
TTAGATTTCGGGTCTGGATTAGTGCTA: 2.97 z-score
TTAGGTAGCGGGTATCGGTTAGTGCTA: -0.493 z-score
GACGGTTTCGGGGATCGGGACGTGCTA: 2.36 z-score
TTAGATTGCGGGACTGGATTAGTGCTA: -0.444 z-score
ATAGATTTCAGTTCCGATTAGTGCTAG: 2.06 z-score
TCATATATATTTATGTAACTGTGCTAG: 0.868 z-score
CTATATTTGCTTCAGGTTTAGTGCTAG: 1.56 z-score
GGTGGTCTGGGACCCTCCCCGTGCTAG: -1.02 z-score
GACGTACTGGACTATCGGGACGTGCTA: -0.0335 z-score
GACGGTCTCGGTTTCGGGGCGTGCTAG: 2.83 z-score
TACGAACTGGGGACTGGAGACGTGCTA: -0.288 z-score
GACGGCTTCGGTATCGGGACGTGCTAG: -0.14 z-score
GATGGTATCGGGTTTCGGGACGTGCTA: 1.71 z-score
TTAAGTCTCGGTCTCGGTTAGTGCTAG: 0.957 z-score
ATCATTTTAGTTTTCATTATGTGCTAG: 3.16 z-score
GACGGACTGGACACTGGGGACGTGCTA: -0.859 z-score
TCAACTAGGAGTTTTCAGACTGTGCTA: -0.129 z-score

For quick reference, copied from above (sample 1):
PMIMKNLMCELDE [A4M]: -0.0279
PMIAKNLMCEKDE [L11K]: -0.0707
PMIAKNLMCPLDE [E10P]: -0.00272
PMIAKMLMCELDE [N6M]: 0.499
PMIAKNLMCELPE [D12P]: -0.112
PMLAKNLMCELDE [I3L]: 0.126
PMIAKNLMCECDE [L11C]: -0.0435
PMIACNLMCELDE [K5C]: 0.249
PMSAKNLMCELDE [I3S]: -0.306
PPIAKNLMCELDE [M2P]: 0.0837
PMIATNLMCELDE [K5T]: 0.0863
PDIAKNLMCELDE [M2D]: 0.188
PMIAKNLGCELDE [M8G]: 0.00127
PMIHKNLMCELDE [A4H]: 0.101
PNIAKNLMCELDE [M2N]: -0.239
PMEAKNLMCELDE [I3E]: 0.101
PMIAKNLMCEDDE [L11D]: -0.456
PMIARNLMCELDE [K5R]: 0.316
PMIAKNLMCEGDE [L11G]: 0.19
PMIAKRLMCELDE [N6R]: 0.12
PMIAQNLMCELDE [K5Q]: -0.176
